# Measured values gathered from unrelated publications.
# Every numbered part comes from another study and shows a few of its results, in no order. Substitutions count along the parent as printed.
# Chain of UniProt P29317 (whole entry, looked up): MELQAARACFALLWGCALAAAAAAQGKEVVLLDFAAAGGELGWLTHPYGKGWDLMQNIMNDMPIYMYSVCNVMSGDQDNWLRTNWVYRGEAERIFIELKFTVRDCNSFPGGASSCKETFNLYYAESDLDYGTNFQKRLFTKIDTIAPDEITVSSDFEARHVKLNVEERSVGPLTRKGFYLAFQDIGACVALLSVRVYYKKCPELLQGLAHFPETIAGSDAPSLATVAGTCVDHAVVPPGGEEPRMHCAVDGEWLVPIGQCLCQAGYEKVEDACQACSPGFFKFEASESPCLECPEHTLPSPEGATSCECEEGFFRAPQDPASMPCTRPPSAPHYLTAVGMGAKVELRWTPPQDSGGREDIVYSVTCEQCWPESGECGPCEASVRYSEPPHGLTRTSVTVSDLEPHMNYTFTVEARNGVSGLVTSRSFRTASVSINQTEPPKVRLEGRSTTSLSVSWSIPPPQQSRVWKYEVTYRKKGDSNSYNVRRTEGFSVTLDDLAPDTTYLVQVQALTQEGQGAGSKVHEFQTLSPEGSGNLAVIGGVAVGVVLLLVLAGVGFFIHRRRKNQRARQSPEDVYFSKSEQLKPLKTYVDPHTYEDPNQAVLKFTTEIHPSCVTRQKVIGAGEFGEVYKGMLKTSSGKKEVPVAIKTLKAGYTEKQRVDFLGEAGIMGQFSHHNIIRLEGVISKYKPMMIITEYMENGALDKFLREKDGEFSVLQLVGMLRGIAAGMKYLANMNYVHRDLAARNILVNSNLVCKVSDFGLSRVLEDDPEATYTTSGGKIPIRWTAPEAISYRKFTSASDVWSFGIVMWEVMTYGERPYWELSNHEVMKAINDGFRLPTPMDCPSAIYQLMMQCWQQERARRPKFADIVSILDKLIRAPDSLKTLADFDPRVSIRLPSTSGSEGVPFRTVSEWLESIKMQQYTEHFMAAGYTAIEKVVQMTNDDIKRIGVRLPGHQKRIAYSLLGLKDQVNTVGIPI

# Series 1 — target: UBE2A UBC core domain (UniProt P49459); method: yeast two-hybrid; matrix: yeast; setting: mostly zero background; relative to: not given; reading: higher = stronger interaction
# Chain of UniProt P49459 (whole entry, looked up): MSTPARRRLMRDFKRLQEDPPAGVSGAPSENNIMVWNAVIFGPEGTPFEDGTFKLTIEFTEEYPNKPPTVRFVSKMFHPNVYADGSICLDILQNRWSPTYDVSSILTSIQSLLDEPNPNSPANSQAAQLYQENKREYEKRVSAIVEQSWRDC
# B1: ANKIB1 RING domain (UniProt Q9P2G1); chain LSPGDLDTSLCDICMCSISVFEDPVDMPCGHDFCRGCWESFLNLKIQEGEAHNIFCPAYDCFQLVPVDIIE
# B2: RNF43 RING domain (UniProt Q68DV7); chain SGSSCSSAPVCAICLEEFSEGQELRVISCLHEFHRNCVDPWLHQHRTCPLCMFNITEGDSFS
# B3: MSL2 RING domain (UniProt Q9HCI7); chain LLPYFRQSLSCCVCGHLLQDPIAPTNSTCQHYVCKTCKGKKMMMKPSCSWCKDYEQFEENKQ
# B4: RNF150 RING domain (UniProt Q9ULK6); chain DKETESDFDNCAVCIEGYKPNDVVRILPCRHLFHKSCVDPWLLDHRTCPMCKMNILKALGIP
# B5: TRIM55 RING domain (UniProt Q9BYV6); chain TMDNLEKQLICPICLEMFTKPVVILPCQHNLCRKCASDIFQASNPYLPTRGGTTMASGGRFRCPSCRHEVVLDRHG
# B6: TRIM15 RING domain (UniProt Q9C019); chain SLKVVHELPACTLCAGPLEDAVTIPCGHTFCRLCLPALSQMGAQSSGKILLCPLCQEEEQAETPMA
# B7: RNF32 RING domain (UniProt Q9H0A6); chain SLLQGDSVQPCPICKEEFELRPQVLLSCSHVFHKACLQAFEKFTNKKTCPLCRKNQYQTRVIH
Sequence,lacZ reporter activity
B1 (ANKIB1 RING domain),0
KRQCSDVDDICSICQAEFQKPILLICQHIFCEECMTLWFNREKTCPLCRTVISDHINKW (RNFT1 RING domain (UniProt Q5M7Z0)),0
B2 (RNF43 RING domain),0
B3 (MSL2 RING domain),0
B4 (RNF150 RING domain),0
B5 (TRIM55 RING domain),0
B6 (TRIM15 RING domain),0
B7 (RNF32 RING domain),0

# Series 2 — target: CCNE1, cyclin fold, Cln2 fusion (human); method: yeast growth competition, sequencing; matrix: yeast; setting: strong parent motif; relative to: not given; reading: higher = stronger binding; starting sequence: viral docking peptide; KGVKRKLFAEDSS
Substitution,normalised enrichment score
KGVKRELFAEDSS [K6E],5.57
KGVKCKLFAEDSS [R5C],1.84
KGVKRKNFAEDSS [L7N],0.498
KGVKYKLFAEDSS [R5Y],-0.128
KGVKRKLFAELSS [D11L],6.42
KGVKRKVFAEDSS [L7V],0.725
KGVKRPLFAEDSS [K6P],1.64
KGVKDKLFAEDSS [R5D],-0.145

# Other studies, line by line
# HLA class I histocompatibility antigen, A alpha chain allele A*69:01: HLA class I histocompatibility antigen, A alpha chain, allele A*69:01 (Homo sapiens, UniProt P04439)
Molecule,target,assay,system,setting,scale,quantity,result
DAAVVFPPV,"HLA class I histocompatibility antigen, A alpha chain allele A*69:01",peptide-MHC binding,peptide,concentration not given,,binding,active
COC[C@H]1OC(=O)c2coc3c2[C@@]1(C)C1=C(C3=O)[C@@H]2CCC(=O)[C@@]2(C)C[C@H]1OC(C)=O,"EPHA2 (Homo sapiens, UniProt P29317)","enzyme activity, inhibitor",,0.5 µM,relative to: control,remaining activity,100%
FLGKIWSS,"HLA class I histocompatibility antigen, A alpha chain allele A*69:01",peptide-MHC binding,peptide,concentration not given,,binding,inactive

# Repeated from above (series 1):
Sequence,lacZ reporter activity
KRQCSDVDDICSICQAEFQKPILLICQHIFCEECMTLWFNREKTCPLCRTVISDHINKW (RNFT1 RING domain (UniProt Q5M7Z0)),0
B2 (RNF43 RING domain),0
B3 (MSL2 RING domain),0
